# Published values gathered from unrelated publications.
# A part holds a random share of what one study measured.

# Series 1
# Target: Histone acetyltransferase KAT6A, winged helix 2, GST fusion (KAT6A, Homo sapiens, UniProt Q92794, residues 85-181)
# Technique: protein binding microarray
# Form: double-stranded DNA, one strand shown
# Matrix: in vitro
# Tested at: not given
# Notes: 8-mer, flanks averaged, mean of 2 arrays, mostly near background
# Baseline: not given
# Direction: higher = stronger binding
# Target sequence (chain): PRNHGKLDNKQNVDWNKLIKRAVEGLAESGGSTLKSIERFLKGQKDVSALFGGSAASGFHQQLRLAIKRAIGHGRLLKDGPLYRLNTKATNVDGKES
Strand,E-score
AAGCCTGC,-0.0412
CTATGAAG,-0.0377
CCAGTCAC,-0.0451
CCCGCAAA,0.17
GCTTTCAC,0.0419
GAAGAATA,-0.0352
CATCCGCA,0.0963
AGCTCATA,0.0804
TACGAATA,-0.00565
AACATCGG,0.0505

# Series 2
# Target: Interferon regulatory factor 7, full length, phosphomimetic (IRF7, Homo sapiens, UniProt Q92985, residues 1-503, S101K/S471D/S472D/S475D/S476D/S477D/S483D/S484D/S487D)
# Technique: protein-binding microarray
# Form: double-stranded DNA, one strand shown
# Matrix: in vitro
# Tested at: 250 nM
# Notes: 60-bp whole probe
# Together with: salmon DNA 0.4 mg/ml
# Baseline: random background probes
# Direction: higher = stronger binding
# Constant ends, left off below: GCCTAGCAC … GTCTTGATTCGCTTGACGCTGCTG
# Target sequence (chain): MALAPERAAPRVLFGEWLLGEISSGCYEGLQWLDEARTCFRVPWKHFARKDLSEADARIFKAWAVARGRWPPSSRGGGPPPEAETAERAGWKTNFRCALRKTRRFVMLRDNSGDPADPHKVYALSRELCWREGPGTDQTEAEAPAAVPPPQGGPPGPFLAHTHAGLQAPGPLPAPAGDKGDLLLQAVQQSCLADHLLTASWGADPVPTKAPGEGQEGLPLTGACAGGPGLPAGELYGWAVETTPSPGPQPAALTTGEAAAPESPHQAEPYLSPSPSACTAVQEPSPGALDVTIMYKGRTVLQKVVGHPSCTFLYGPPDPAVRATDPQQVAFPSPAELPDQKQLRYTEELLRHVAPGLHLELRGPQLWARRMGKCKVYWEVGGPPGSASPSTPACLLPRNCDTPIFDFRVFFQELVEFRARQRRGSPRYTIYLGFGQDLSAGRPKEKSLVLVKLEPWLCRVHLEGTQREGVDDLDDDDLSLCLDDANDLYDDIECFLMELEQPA
Strand,log fluorescence [z-score]
GACGGTTTCGGTATCTGGACGTGCTAG,10.9
TTAGGTTTCGTTTTCCTTTAGTGCTAG,14.6
GCCGGTTTCGGTTTCGGGACGTGCTAG,14.6
ATAGATTTCAGTCTCGATTAGTGCTAG,2.14
GACGGTATCGACACTGGGGGCGTGCTA,0.531
GACCATATCAGTCTCGAGACGTGCTAG,0.917

# Series 3
# Target: Sal-like protein 4, full length isoform B (SALL4, Homo sapiens, UniProt Q9UJQ4-2, residues 1-616)
# Technique: universal PBM
# Form: double-stranded DNA, one strand shown
# Matrix: in vitro
# Tested at: not given
# Notes: 8-mer, flanks averaged, mean of replicates
# Direction: higher = stronger binding
Strand,E-score
AACCTACC,-0.179
GTTCACGA,-0.0922
AGAAGGAA,-0.034
AGAGTTAT,0.17
TCATGCAA,0.184
GAAGCCAA,-0.046
GTGATCTA,0.165

# Single results of other studies
Molecule,target,assay,test system,setting,how to read,endpoint,result
"PhoQ, residues 284 288 289 292 302 303 SQSLSM","PhoP, residues 12 14 15 18 19 VQALL (Escherichia coli, UniProt P23836)","Sort-seq, measured: YFP reporter",E. coli,"PhoQ-PhoP variant library, together with: 10 µM Mg2+","baseline: high Mg2+ state, higher = stronger signaling",fold induction,12.1

# Repeated from above (series 1):
Strand,E-score
GAAGAATA,-0.0352
AAGCCTGC,-0.0412
CATCCGCA,0.0963
